{"data": "Earlier results as cited in several papers", "note": "Several values in a cell are separate wells, animals, samples, runs or records."}
{"Compound": "CCCCCCCCCCCCOS(=O)(=O)[O-].[Na+]", "pKa": -1.5}
{"Compound": "CC1(C)C2CCC1(CS(=O)(=O)O)C(=O)C2 (single isomer, unassigned; (+))", "pKa": 1.2}
{"Compound": "CNC(C)Cc1ccc2c(c1)OCO2 (stereo not shown)", "conditions": "basic", "pKa": 10.1}
{"Compound": "O=C(O)C(F)(F)C(F)(F)C(F)(F)C(F)(F)C(F)(F)C(F)(F)C(F)(F)F", "test": "differential refractometry, literature value", "pKa": 2.8}
{"Compound": "CCN(CC)C(=O)[C@@H]1C=C2c3cccc4[nH]cc(c34)C[C@H]2N(C)C1", "pKa": 6.37}
{"Compound": "CC(C)C[C@H](NC(=O)CNC(=O)c1cc(Cl)ccc1Cl)B(O)O", "pKa": 8.2}
{"Compound": "COc1ccc(CC(C)N)cc1 (stereo not shown)", "pKa": 10}
{"Compound": "O=S(=O)(O)C(F)(F)C(F)(F)C(F)(F)C(F)(F)C(F)(F)C(F)(F)C(F)(F)C(F)(F)F", "test": "ESI-MS, literature value", "pKa": "< 1"}
{"Compound": "c1c[nH]cn1", "pKa": 14.4}
{"Compound": "Oc1c(Cl)cc(Cl)c(Cl)c1Cc1c(O)c(Cl)cc(Cl)c1Cl", "conditions": "phenol group", "pKa": "~5"}
{"Compound": "O=C(O)C(F)(F)C(F)(F)F", "test": "conductometry, literature value", "pKa": "0.38 and 0.34"}
{"Compound": "CNC(C)Cc1ccc2c(c1)OCO2 (stereo not shown)", "pKa": 10}
{"Compound": "N[C@@H]1C[C@H]1c1ccccc1", "pKa": 8.5}
